Measurements collected from several papers.
Lines come from different studies, so protocols differ. ± marks the error that the study gave.

O=C(Nc1cc(Cl)cc2cccnc12)c1ccc([N+](=O)[O-])s1  kinetic solubility: ≤ 0.06 µM
Ac-KKKRKV-OH (N-acetyl)  survival (C57BL/6J mouse; intravenous, 2 mg, 24 h): 100%
CCCCCOc1ccc(-c2ccc(-c3ccc(C(=O)N[C@H]4C[C@@H](O)[C@@H](O)NC(=O)[C@@H]5[C@@H](O)[C@@H](C)CN5C(=O)[C@H]([C@@H](C)O)NC(=O)[C@H]([C@H](O)[C@@H](O)c5ccc(O)cc5)NC(=O)[C@@H]5C[C@@H](O)CN5C(=O)[C@H]([C@@H](C)O)NC4=O)cc3)cc2)cc1  clearance (population PK model; patients aged sample B to < sample C years; intravenous, 200 mg loading, 100 mg once daily, mean, weight-corrected): 0.017 L/h/kg
[123I]c1cncc(OC[C@@H]2CCN2)c1  tissue/plasma ratio (SPECT; human, frontal lobe; intravenous bolus, 2.1 mCi; reference: tissue over plasma): 12.1
O=C(c1ccc(F)c(F)c1Nc1ccc(I)cc1F)N1CC(O)([C@@H]2CCCCN2)C1  treatment-related adverse events (measured: retinal detachment; human patients; oral, dose not given, dose escalation, tablet, grade G4): 0%
[Met(O)35]Aβ42  time to fibril formation (electron microscopy; sodium phosphate buffer; 10 µM, pH 7.4, 25 °C, agitation 200 rpm): 48 h
CN[C@@](C)(C[18F])C(=O)O  tissue uptake (SCID mouse MDA-MB-468 xenograft, blood; 30 min, post injection): 1.5 ± 0.1 %ID/g
O[C@H]1CCCN[C@@H]1CCCn1cnc2c(Cl)c(Cl)ccc21  mean residence time (human, plasma; oral, 100 mg single dose, solution, geometric mean): 5.17 h
CCCCCCCCCCCCCC[N+](C)(C)CCCCCCCCCCCCCC  intrinsic clearance (substrate depletion; human liver microsomes; 0.5 µM, 0 to 3 h, 37 °C, with: NADPH): 0.164 mL/h/mg protein
Oc1cccc2ccccc12  body weight (fish short-term reproduction; Oryzias latipes, female, water, flow-through; 80.0 µg/L, end of exposure): 702 ± 48 mg
Cc1cnc(C(=O)N[C@H]2CCCCC/C=C\[C@@H]3C[C@@]3(C(=O)NS(=O)(=O)C3CC3)NC(=O)[C@@H]3C[C@@H](Oc4nc5ccccc5c5ccccc45)CN3C2=O)cn1  AUCtau (healthy volunteers; oral, dose not given, with digoxin): 6320 ng·h/mL
CC(=O)N[C@H](CCCCNC(=O)C(C)F)C(=O)N[C@@H](CS)C(=O)N[C@@H](CS)C(=O)N[C@@H](CCC(=O)O)C(=O)N[C@@H](Cc1c[nH]cn1)C(=O)N[C@H](Cc1ccccc1)C(=O)N[C@@H](CCCNC(=N)N)C(=O)N[C@@H](Cc1c[nH]c2ccccc12)C(=O)N[C@@H](CS)C(=O)N[C@@H](CCCNC(=N)N)C(=O)N1CCC[C@H]1C(=O)N[C@H](C(N)=O)C(C)C (stereo partly drawn) [fluorine-18 labelled]  tissue uptake (C57BL/6 mice, male, B16-F10 tumour, brain; intravenous, 1 h): 0.11 ± 0.04 %ID/g

A few entries again:
CC(=O)N[C@H](CCCCNC(=O)C(C)F)C(=O)N[C@@H](CS)C(=O)N[C@@H](CS)C(=O)N[C@@H](CCC(=O)O)C(=O)N[C@@H](Cc1c[nH]cn1)C(=O)N[C@H](Cc1ccccc1)C(=O)N[C@@H](CCCNC(=N)N)C(=O)N[C@@H](Cc1c[nH]c2ccccc12)C(=O)N[C@@H](CS)C(=O)N[C@@H](CCCNC(=N)N)C(=O)N1CCC[C@H]1C(=O)N[C@H](C(N)=O)C(C)C (stereo partly drawn) [fluorine-18 labelled]  tissue uptake (C57BL/6 mice, male, B16-F10 tumour, brain; intravenous, 1 h): 0.11 ± 0.04 %ID/g
